{"data": "Assay results pooled from the literature", "target": "Cytochrome P450 1A2 (CYP1A2, Homo sapiens, UniProt P05177)", "note": "± gives the spread as reported.", "sequence of UniProt P05177 (whole entry, looked up)": "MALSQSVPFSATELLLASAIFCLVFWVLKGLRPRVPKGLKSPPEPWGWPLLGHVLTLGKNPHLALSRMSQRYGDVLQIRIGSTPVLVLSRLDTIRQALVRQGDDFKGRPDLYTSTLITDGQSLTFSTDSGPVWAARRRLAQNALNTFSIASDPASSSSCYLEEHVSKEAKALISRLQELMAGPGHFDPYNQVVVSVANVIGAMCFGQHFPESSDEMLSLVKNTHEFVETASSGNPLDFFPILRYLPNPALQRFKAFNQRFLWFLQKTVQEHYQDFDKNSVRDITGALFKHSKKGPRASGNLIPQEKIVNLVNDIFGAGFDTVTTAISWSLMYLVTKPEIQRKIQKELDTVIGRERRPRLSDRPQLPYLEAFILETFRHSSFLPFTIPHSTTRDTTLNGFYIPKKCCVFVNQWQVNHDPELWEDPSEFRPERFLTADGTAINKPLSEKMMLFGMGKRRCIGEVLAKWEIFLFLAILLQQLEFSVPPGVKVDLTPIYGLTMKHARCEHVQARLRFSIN"}
{"Compound": "Cc1cc(OC2COC2)cc(C(=O)Nc2ccc(F)cn2)n1", "assay": "inhibitor", "IC50": "5.8 µM"}
{"Compound": "COc1ccc(Cc2nc(NC(=O)C34CC5CC(CC(C5)C3)C4)n(C)c2Cc2ccc(OC)c(OC)c2)cc1", "IC50": "> 200 µM"}
{"Compound": "O=C(O)/C=C/c1ccccc1", "assay": "enzyme activity, inhibitor", "IC50": "> 337 µM"}
{"Compound": "COc1c(-c2ccccc2)oc2ccccc2c1=O", "assay": "enzyme activity, inhibitor, LC-MS/MS, refers to: acetaminophen", "test system": "human liver microsomes", "setting": "30 min, pH 7.4, together with: phenacetin", "IC50": "1.02 ± 0.04 µM"}
{"Compound": "Cc1cc(O[C@@H]2CCOC2)cc(C(=O)Nc2nc(C)cs2)n1", "assay": "inhibitor", "IC50": "> 30 µM"}
{"Compound": "COc1ccc2oc(-c3ccccc3)cc(=O)c2c1", "assay": "enzyme activity, inhibitor, LC-MS/MS, refers to: acetaminophen", "test system": "human liver microsomes", "setting": "30 min, pH 7.4, together with: phenacetin", "IC50": "15.7 ± 1.83 µM"}
{"Compound": "Cc1nc(-c2cnc(NC(C)C)n(C)c2=O)ccc1Oc1ccnc(-c2cnn(C)c2)c1", "assay": "direct inhibition, inhibitor", "setting": "no preincubation", "IC50": "> 100 µM"}
{"Compound": "O=C(NCCN1CCCC1)c1cc(-c2ccc(CN3CCOCC3)cc2)nc2ccc(F)cc12", "assay": "enzyme activity, inhibitor", "test system": "human liver microsomes", "setting": "together with: phenacetin", "IC50": "> 100 µM"}
{"Compound": "O=c1cc(-c2ccccc2)oc2ccc(O)cc12", "assay": "enzyme activity, inhibitor, LC-MS/MS, refers to: acetaminophen", "test system": "human liver microsomes", "setting": "30 min, pH 7.4, together with: phenacetin", "IC50": "2.9 ± 0.35 µM"}
